# Measured values pooled from the literature.
# Each numbered part is a random draw from the data of one study; scales do not carry over between parts.

# Block 1
# Target: RNA binding protein fox-1 homolog 2, RRM domain, GST-SBP tag (RBFOX2, Homo sapiens, UniProt O43251-10, residues 100-194)
# Technique: RNA Bind-n-Seq
# Molecule type: RNA
# Matrix: in vitro
# Tested at: 365 nM
# Setting: natural RNA segment, single round, ends assumed
# Reference: no-protein control
# Direction: higher = stronger binding
# Shared flanks, not repeated: GGGAGUUCUACAGUCCGACGAUC … UGGAAUUCUCGGGUGCCAA
# Target sequence (chain): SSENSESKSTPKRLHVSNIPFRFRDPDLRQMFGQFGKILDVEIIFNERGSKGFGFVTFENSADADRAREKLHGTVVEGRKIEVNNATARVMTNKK
Oligonucleotide,RBNS enrichment (R)
CUUCCUGAAUGUUUGUGUGUGAACCCUUGUUUCCUCCAAAACAAACGACAGCAACGAAAACUCCUUAAUCAGAACACUGAUCCAAUGAGGAAUGGAGCUUGUUUCUGUGA,0.586
AAUUAUUCUGUCACCCAGCCUGGCGUAGGACUCUUUUGGUCCUGCCUGCUUCCUAUCUCUGGAGGAGCUUCCCCACGCGGGAGAGCAAUGGCAGAGGAUCCACACAUCCU,0.205
UGUGUGUGUGUGUAGAGGGAUGGACAGGAUGCUGUUUAUUUUCCCUUUCUUGGAAAUGGACCUUCUGUCCCUUCCAUUUGGACACCACAGUGGAAGCUGGUGGCCUGGAA,0.345
UCUGUGGCUGUGGUCUGUCCUGGGAACAGACGUGGUAAAAUGCGUUUCCUAUCUCUAAAAUAUCUACUUCUGUGAAGAAGACUGGCUUACUCAGGCCAGGGCCCUCCUGA,0.279
GCUUUCCUGUGACUUGAUUGGGAUACAGGCAUUUAACUUUGGAAGGCUAGUUUGGUGCCUGCUCUGGGUCAUACACCUGAUCUGGAAGAACAAAGCUUAAGCUGCCUUUG,0.375
CAAGCGAGCACAGCUCCGUGCCAAAGCUAACUAAUUUGCUAAUCACCAUUGAUUUUUCCAAAAUGUGUUGGAGAUUUGGCUGGACAGGUUACCAUCAGAGUGGAUGUACC,0.259
GGUUUGGAAAUCCUUUAUUCUCUUUUCUCAAUACCAAGUGGUGCCUUACUGUGGCAGCAGUGUCACUGUCACUGAAAUAAACGUAAGCCCUACCUUCUUUCUUGUUUGAU,0.424
GCAUUCAUUUUAUUUCCCUUAAGGUCUGGAUGAGACUUCUUUGGGGAGCCUCUAAAAAAAUUUUUCACUGGGGGCCACGUGGGUCAUUAGAAGCCAGAGCUCUCCUCCAG,0.531

# Block 2
# Target: Replicase polyprotein 1ab, polymerase (rep, Severe acute respiratory syndrome coronavirus 2, UniProt P0DTD1)
# Effect on: enzyme activity
# Action: inhibitor
# Tested at: 20 µM
SMILES,inhibition [%]
O=C(Nc1ccccc1-c1cn2c(CN3CCNCC3)csc2n1)c1cnc2ccccc2n1,47
CCC(=O)NC[C@H](Cc1ccc(OCCc2nc(-c3ccccc3)oc2C)cc1)N/C(C)=C\C(=O)c1ccc(C(F)(F)F)cc1,-3.43
COc1ccc(-c2cc(=S)ss2)cc1,-11.5
CCC(C)(CN(C)C)OC(=O)c1ccccc1 (centres unmarked),-0.03
Nc1cc(F)ccc1NC(=O)/C=C/c1cnn(C/C=C/c2ccccc2)c1,-0.15
Cc1c(C)c(NCC(=O)N(C)C2CCN(Cc3ccc(C(N)=O)cc3)CC2)c(C)c(C)c1N,3.2
O=P(O)(NCCCl)NCCCl,6.81
N[C@@]1(C(=O)O)CC[C@@H](C(=O)O)C1,-5.09
C(#CCN1CCCC1)CN1CCCC1,0.12
COc1ccc2[nH]c([S+]([O-])Cc3ncc(C)c(OC)c3C)nc2n1 (centres unmarked),43.8
CC(C)(C(=O)c1cccnc1)c1cccnc1,-1.14
Cc1nc(=O)c2cc(CN(C)c3ccc(C(=O)N[C@@H](CCC(=O)O)C(=O)O)s3)ccc2[nH]1,0.59
CN1C(=O)CCS(=O)(=O)C1c1ccc(Cl)cc1 (centres unmarked),-0.94
O=C(O)Cc1ccc(OCc2ccccc2)c(Cl)c1,-1
CCCCCCCCCCCC(=O)O,-0.09
CN1c2c(oc(=O)n(-c3ccccn3)c2=O)-c2ccccc2S1(=O)=O,1.66
CC(=O)Oc1ccccc1C(=O)Oc1cccc(CO[N+](=O)[O-])c1,1.73
O=C1COc2nccc(-c3ccccc3F)c2CN1Cc1cc(C(F)(F)F)cc(C(F)(F)F)c1,-23.3
Cn1cnc([N+](=O)[O-])c1Sc1ncnc2[nH]cnc12,-9.25
CCC(C)n1ncn(-c2ccc(N3CCN(c4ccc(OC[C@H]5CO[C@](Cn6cncn6)(c6ccc(Cl)cc6Cl)O5)cc4)CC3)cc2)c1=O (some centres unmarked),1.26
N#Cc1c(N2C[C@@H]3NCCO[C@H]3C2)c(F)cc2c(=O)c(C(=O)O)cn(C3CC3)c12,-5.09
Fc1ccc(C(OCCN2CCN(CCCc3ccccc3)CC2)c2ccc(F)cc2)cc1,-2.64
CCCCCCCC(=O)OCC(O)CO (centres unmarked),-11.5
C#Cc1cccc(Nc2ncnc3cc(OCCOC)c(OCCO)cc23)c1,3.06
CNCC(O)c1ccc(OC(=O)C(C)(C)C)c(OC(=O)C(C)(C)C)c1 (centres unmarked),-0.77

# Block 3
# Target: Ras GTPase-activating protein-binding protein 1, full length (G3BP1, Homo sapiens, UniProt Q13283)
# Sequence of UniProt Q13283 (whole entry, looked up): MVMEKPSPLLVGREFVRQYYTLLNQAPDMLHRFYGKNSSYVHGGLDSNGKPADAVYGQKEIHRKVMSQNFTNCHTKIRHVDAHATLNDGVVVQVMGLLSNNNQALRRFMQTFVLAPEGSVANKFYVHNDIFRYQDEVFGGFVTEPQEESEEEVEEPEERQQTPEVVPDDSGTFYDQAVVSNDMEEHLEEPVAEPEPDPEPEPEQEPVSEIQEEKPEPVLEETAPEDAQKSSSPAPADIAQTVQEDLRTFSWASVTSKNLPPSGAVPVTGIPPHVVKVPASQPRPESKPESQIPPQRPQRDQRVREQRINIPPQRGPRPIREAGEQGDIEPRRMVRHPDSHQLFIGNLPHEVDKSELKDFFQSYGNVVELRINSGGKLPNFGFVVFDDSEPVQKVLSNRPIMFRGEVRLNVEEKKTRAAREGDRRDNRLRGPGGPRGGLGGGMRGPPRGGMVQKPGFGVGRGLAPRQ
# Technique: RNA Bind-n-Seq
# Molecule type: RNA
# Matrix: in vitro
# Tested at: 200 nM
# Setting: whole 134-nt RNA, ends assumed
# Added: 150 mM KCl
# Reference: input library
# Direction: higher = stronger binding
# Shared flanks, not repeated: GGGAGUUCUACAGUCCGACGAUC … UGGAAUUCUCGGGUGUCAAGG
Oligonucleotide,log2 enrichment
AGUCCUGUGCUACACAUCGUAUGUACCGAAUCGGAAAAAGGUUUUUGGAAAAAAAGGAAAGUAUUAUGUUACGCCGUUCGGAUCUGCACU,-1.69
UUUGCUGAUUUCUGGCUGGCGGAUCAGCUGAACAGCCUGUCAGUGAUACUGAUGGACCUGGAAUAUAUGAUCUGCUUCUACAGUUUGGAG,-2.45
UUAAGAAUAUUUAGAUAUUUGUAAAAGAAUUUGAAUGAUUUAUUUAAUAUAACGUUUAUUUUAUUAGCUCUAUUCCAAUUGAUUACAACC,-1.78
CACAGACAACACGCACCCACACAGACAAAAAGGGAAGGGGUUGGGAUGGGGACAGGGUGCACAGCAGGGCGGGGUAGGACCCCAGCCCCU,1.84
AAGUCCUGUGCUACACAUCGUAUGUACCGAAUCGGGUUUGGGAGGGUUUUUUUGGGAAAGUAUUAUGUUACGCCGUUCGGAUCUGCACUU,0.0977
AGUCCUGUGCUACACAUCGUAUGUACCGAAUCGGGGAGGGGUUUUUUUGGGGUGGGGAAAGUAUUAUGUUACGCCGUUCGGAUCUGCACU,0.768
UCCUGUGCUACACAUCGUAUGUACCGAAUCGGGGCCCCCGGGCCCCCGGGGCCCCCGGGGAAAGUAUUAUGUUACGCCGUUCGGAUCUGC,-0.717
AAGUCCUGUGCUACACAUCGUAUGUACCGAAUCGGGUUUGGGGUUUGGGUUUGGGGAAAGUAUUAUGUUACGCCGUUCGGAUCUGCACUU,0.387

# Block 4
# Target: Replicase polyprotein 1ab, main protease (rep, Severe acute respiratory syndrome coronavirus 2, UniProt P0DTD1)
# Effect on: enzyme activity
# Action: inhibitor
# Tested at: 20 µM
# Setting: primary screen
Compound,inhibition [%]
NCCc1cc(O)c(O)cc1O,82.3
N=C(N)c1cc2ccc(OC(=O)c3cccs3)cc2s1,40.8
CO/N=C(\C(=O)N[C@@H]1C(=O)N2C(C(=O)OCOC(=O)C(C)(C)C)=C(/C=C\c3scnc3C)CS[C@H]12)c1csc(N)n1,41.5
Oc1c(I)cc(I)c(O)c1I,99.7

# Block 5
# Target: RING finger protein unkempt homolog, zinc fingers 1-6, GST-SBP tag (UNK, Homo sapiens, UniProt Q9C0B0, residues 30-357)
# Technique: RNA Bind-n-Seq
# Molecule type: RNA
# Matrix: in vitro
# Tested at: not given
# Setting: RNA with constant flanks, human-mouse chimeric sites, ends assumed
# Reference: input RNA pool
# Direction: higher = stronger binding
# Shared flanks, not repeated: GGGAGUUCUACAGUCCGACGAUC … CAACAGAGGAUUGAGCAUCA
# Construct (chain): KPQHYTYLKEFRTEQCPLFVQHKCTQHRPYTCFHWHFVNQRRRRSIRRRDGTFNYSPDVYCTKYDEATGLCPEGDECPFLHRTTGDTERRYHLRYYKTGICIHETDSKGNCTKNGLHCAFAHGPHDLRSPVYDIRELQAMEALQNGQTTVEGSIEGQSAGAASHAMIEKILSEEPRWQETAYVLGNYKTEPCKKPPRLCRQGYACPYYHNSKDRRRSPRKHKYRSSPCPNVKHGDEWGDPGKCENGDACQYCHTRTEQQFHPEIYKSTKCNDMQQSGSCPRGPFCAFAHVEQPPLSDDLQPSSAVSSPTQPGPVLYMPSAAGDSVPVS
Oligonucleotide,bound/input enrichment
AAAGUGAUGACUAUGUUUGUACAGCGACAGGUAUUUUCGGAGAGCAAAGAUGAGAUUGCUUUAGUCCUCUAUGGCACAGAUGGCACUGAUAAUGCCCUUGCUGGCAAGGACCAGUAUCAG,0.267 ratio
CUCAUGGCUGCAGAAACAGGAAGUGGAAAAACUGGUGCAUUUAGUAUUCCCGUUAUCCAGAUAGUUUAUGAAACUCUGAAAGACCAACAGGAAGGAAAAAAAGGAAAAACAACUAUUAAA,1.13 ratio
CGCUUGGAUGAGGCGGGUGUCACAGAUGAAGUGCUAGAUUCUGCCAUGCAAGCCUUCCUUCUGGAGGUCAUUGUUAAGCAUGGGGAGCCAGCCCCUUAUUUAUGUAACAAAGAUCCGUUU,0.0938 ratio
GUACUGCAGCAGCAGGGAAAACUGCAGGAAGCUCUGAUGCAUUAUAAGGAGGCUAUUCGAAUCAGUCCUACCUUUGCUGAUGCUUAUUCCAAUAUGGGAAACACUCUAAAGGAGAUGCAG,0.169 ratio
CUGAAAAACACAGAUAUCAAAGUUGUUGACUUUGGAAGUGCAACGUAUGAUGAUGAACAUCACAGUACUUUGGUGUCUACCCGGCACUACAGAGCUCCAGAGGUCAUUUUGGCUCUAGGU,0.317 ratio
CUAGCAGUCCAGCAGCUAGAAGGAGCCAAUUGUUUGUCACUCCACACACAGGGAAGGCGAUAACAUUGUACAUUGGUUUACAUUUUUUCCCCCUGUGGAUUUUUCUAGAGGUCAUAGUGC,0.577 ratio
UCGGAUGAGGUGCUGGGUCACUUUUCAUAUCCAGAUCCUUCCCAGUGGACAGAUGAAGAACUGGGAAUCCCUCCUGAUGACGAGGACUGACACUGUAAACUCUCUGGACGAGUAGGAGCA,0.586 ratio
UAACCACAUCAAGAUGGUUGGGAAGCUGAAGCAGAACUUACUCUUGGCAUGUCUGGUGAUUAGUUCUGUGACCGUGUUUUACCUGGGCCAGCAUGCCAUGGAAUGCCAUCACCGAAUAGA,0.149 ratio

# Block 6
# Cell line: HEK-293T/ACE2
# Effect on: pseudovirus infection
# Organism: VSV pseudotyped with SARS-CoV-2 spike
# Tested at: concentration not given
# Reference: vehicle-treated
Structure (SMILES),GFP-positive cells
CO[C@H]1C[C@@H]2CC[C@@H](C)[C@@](O)(O2)C(=O)C(=O)N2CCCC[C@H]2C(=O)O[C@H]([C@H](C)C[C@@H]2CC[C@@H](OC(=O)C(C)(CO)CO)[C@H](OC)C2)CC(=O)[C@H](C)/C=C(\C)[C@@H](O)[C@@H](OC)C(=O)[C@H](C)C[C@H](C)/C=C/C=C/C=C/1C,89.3%
CC(C)(C)c1cc(C(C)(C)C)c(NC(=O)c2c[nH]c3ccccc3c2=O)cc1O,55.3%
OC[C@H]1O[C@@H](c2ccc(Cl)c(Cc3ccc(O[C@H]4CCOC4)cc3)c2)[C@H](O)[C@@H](O)[C@@H]1O,104%

# For quick reference, copied from above (block 2):
SMILES,inhibition [%]
CC(=O)Oc1ccccc1C(=O)Oc1cccc(CO[N+](=O)[O-])c1,1.73
Nc1cc(F)ccc1NC(=O)/C=C/c1cnn(C/C=C/c2ccccc2)c1,-0.15
COc1ccc2[nH]c([S+]([O-])Cc3ncc(C)c(OC)c3C)nc2n1 (centres unmarked),43.8
CCC(=O)NC[C@H](Cc1ccc(OCCc2nc(-c3ccccc3)oc2C)cc1)N/C(C)=C\C(=O)c1ccc(C(F)(F)F)cc1,-3.43
O=P(O)(NCCCl)NCCCl,6.81
CCCCCCCCCCCC(=O)O,-0.09
